Experimental data pooled from the literature.
Every numbered part comes from another study and shows a few of its results, in no order. Substitutions count along the parent as printed.

Series 1 — technique: universal PBM; molecule type: double-stranded DNA, one strand shown; matrix: in vitro; tested at: 600 nM; reading: higher = stronger binding
Target: Sal-like protein 4, full length isoform A (SALL4, Homo sapiens, UniProt Q9UJQ4, residues 1-1053)
Chain of UniProt Q9UJQ4 (whole entry, looked up): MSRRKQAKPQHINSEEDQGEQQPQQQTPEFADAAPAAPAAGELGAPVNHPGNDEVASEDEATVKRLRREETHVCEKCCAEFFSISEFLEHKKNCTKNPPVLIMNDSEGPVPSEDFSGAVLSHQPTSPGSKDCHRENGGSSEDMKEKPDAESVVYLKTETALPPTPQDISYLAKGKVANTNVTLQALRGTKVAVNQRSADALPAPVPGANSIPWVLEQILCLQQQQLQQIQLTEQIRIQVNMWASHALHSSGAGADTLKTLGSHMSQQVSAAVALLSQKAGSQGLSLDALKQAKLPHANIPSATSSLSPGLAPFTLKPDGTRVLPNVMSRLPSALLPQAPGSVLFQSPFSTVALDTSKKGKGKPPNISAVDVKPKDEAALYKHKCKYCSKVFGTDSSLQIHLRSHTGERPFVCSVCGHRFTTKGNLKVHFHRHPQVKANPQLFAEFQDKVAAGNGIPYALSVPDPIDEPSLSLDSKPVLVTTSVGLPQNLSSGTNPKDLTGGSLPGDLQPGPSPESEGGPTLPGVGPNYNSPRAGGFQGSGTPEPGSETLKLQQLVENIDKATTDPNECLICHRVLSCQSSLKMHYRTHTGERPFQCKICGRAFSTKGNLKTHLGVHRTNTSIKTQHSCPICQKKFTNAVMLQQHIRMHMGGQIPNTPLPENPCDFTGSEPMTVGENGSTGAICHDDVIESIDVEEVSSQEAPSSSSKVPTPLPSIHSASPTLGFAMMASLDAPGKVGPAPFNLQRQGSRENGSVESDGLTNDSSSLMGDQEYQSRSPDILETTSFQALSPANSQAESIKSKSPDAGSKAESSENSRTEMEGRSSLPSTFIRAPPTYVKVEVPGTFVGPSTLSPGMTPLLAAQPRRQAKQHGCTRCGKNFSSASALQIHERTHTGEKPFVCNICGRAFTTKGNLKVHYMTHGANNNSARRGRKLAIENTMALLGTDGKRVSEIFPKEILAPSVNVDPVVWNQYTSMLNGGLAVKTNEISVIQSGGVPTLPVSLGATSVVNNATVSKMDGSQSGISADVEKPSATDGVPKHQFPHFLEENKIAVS
Setting: 8-mer, flanks averaged, mean of replicates
Oligonucleotide | E-score
ATCCTTAA | 0.0688
ATTGTGTG | 0.0414
AATTGAAA | 0.286
GGACGTCA | -0.104
ACTTAGGG | -0.078
ACAAGGCC | -0.214
GAGGATCA | -0.0459
TAATCACA | 0.247
AAATTGGT | 0.189
CGGTAAAA | 0.116
CCCCTAGG | -0.371
CTTGAACA | 0.0599
CTGTGGCC | -0.38
AGCTTCTC | -0.0654
AGGCGGCC | -0.269
GAAATGGA | 0.0279
AACTAACT | 0.00924
CAGGCCTA | -0.153
CCGATCGG | -0.314
AATAAAAG | 0.274
CGCCGCCG | -0.352
TCTATTCA | 0.259
ATAGTGGC | -0.0725
AACCTGTG | -0.0924
CGAGGACC | -0.221

Series 2 — technique: aptamer microarray, sandwich; molecule type: DNA with 2'F-ANA; matrix: in vitro; tested at: 200 nM; added: Cy3 exosite-II aptamer, 400 nM; reading: higher = stronger binding; oligonucleotide: GGTTGGTGTGGTTGG
Target: Prothrombin, mature alpha-thrombin (F2, Homo sapiens, UniProt P00734)
Setting: whole 15-mer aptamer, many near background
Modification | mean fluorescence intensity
2'F-ANA at 3 6 7 8 10 14 15 | 415 a.u.
2'F-ANA at 2 3 4 8 10 14 | 182 a.u.
2'F-ANA at 1 2 7 8 9 14 15 | 58.4 a.u.
2'F-ANA at 1 2 5 6 7 8 10 11 12 13 15 | 47.9 a.u.
2'F-ANA at 3 5 8 9 10 12 15 | 68.3 a.u.
2'F-ANA at 1 4 6 8 11 13 15 | 88.7 a.u.
2'F-ANA at 1 3 7 12 13 | 539 a.u.
2'F-ANA at 6 7 9 10 11 13 | 138 a.u.
2'F-ANA at 1 3 4 5 12 13 14 15 | 46.2 a.u.
2'F-ANA at 1 4 7 10 13 | 58.5 a.u.
2'F-ANA at 1 2 4 5 6 8 12 13 14 15 | 49 a.u.
2'F-ANA at 2 4 7 8 9 11 12 13 15 | 340 a.u.
2'F-ANA at 3 4 5 6 7 10 11 13 14 | 59 a.u.
2'F-ANA at 2 3 4 6 12 | 825 a.u.
2'F-ANA at 1 2 3 7 8 9 10 11 12 14 15 | 107 a.u.
2'F-ANA at 9 10 12 14 15 | 113 a.u.
2'F-ANA at 4 5 7 8 9 10 12 13 15 | 65.3 a.u.
2'F-ANA at 4 5 7 8 11 12 | 134 a.u.
2'F-ANA at 2 4 6 10 12 13 14 | 61 a.u.
2'F-ANA at 1 3 4 12 13 14 | 79 a.u.
2'F-ANA at 5 6 7 11 12 13 14 15 | 53 a.u.
2'F-ANA at 2 4 7 9 10 11 15 | 84.5 a.u.
2'F-ANA at 2 3 4 5 6 10 11 13 14 | 59.7 a.u.
2'F-ANA at 2 4 5 6 8 9 13 14 | 44.1 a.u.

Series 3 — technique: DHFR PCA, deep sequencing; matrix: yeast; added: (+)-ABA 0 µM; reference: wild-type fitted maximum; reading: higher = stronger binding
Target: ABI1, truncated, D143A, DHFR fusion (Arabidopsis thaliana)
Setting: methotrexate growth selection, single substitutions
Parent: PYL1, truncated, DHFR fusion (Arabidopsis thaliana); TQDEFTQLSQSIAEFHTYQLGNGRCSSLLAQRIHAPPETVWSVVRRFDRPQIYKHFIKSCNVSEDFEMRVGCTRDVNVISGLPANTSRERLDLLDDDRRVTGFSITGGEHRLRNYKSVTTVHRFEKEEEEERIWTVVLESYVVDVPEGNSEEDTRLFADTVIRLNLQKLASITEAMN; partner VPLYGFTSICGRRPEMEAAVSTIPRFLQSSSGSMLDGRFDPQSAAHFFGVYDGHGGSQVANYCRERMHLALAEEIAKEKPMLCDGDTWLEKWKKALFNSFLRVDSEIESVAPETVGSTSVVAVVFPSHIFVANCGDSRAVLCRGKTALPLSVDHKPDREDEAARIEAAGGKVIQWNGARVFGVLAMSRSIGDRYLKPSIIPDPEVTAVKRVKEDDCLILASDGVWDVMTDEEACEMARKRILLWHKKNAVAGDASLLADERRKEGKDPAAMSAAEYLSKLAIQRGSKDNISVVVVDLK
Variant | relative binding score
F47G | -4.54%
F157Y | 47.3%
V136I | 27.3%
T160C | 1.04%
S150H | 9.42%
I57L | -1.42%
S42Y | -1.17%
A175C | 2.99%
S104F | -12.9%
L20A | 37.9%
D95R | -6.07%
E109G | 0.751%
K116H | 9.12%

Other studies, line by line
Substance | target | test | test system | setting | scale | quantity | result
PhoQ, residues 284 288 289 292 302 303 AEGLLW | PhoP, residues 12 14 15 18 19 QWHVF (Escherichia coli, UniProt P23836) | Sort-seq, item: YFP reporter | E. coli | PhoQ-PhoP variant library, added: 10 µM Mg2+ | reference: high Mg2+ state, higher = stronger signaling | fold induction | 4.79

For quick reference, copied from above (series 2):
Modification | mean fluorescence intensity
2'F-ANA at 2 4 5 6 8 9 13 14 | 44.1 a.u.
2'F-ANA at 2 3 4 5 6 10 11 13 14 | 59.7 a.u.
2'F-ANA at 2 4 7 8 9 11 12 13 15 | 340 a.u.
2'F-ANA at 4 5 7 8 9 10 12 13 15 | 65.3 a.u.
2'F-ANA at 1 3 4 12 13 14 | 79 a.u.
2'F-ANA at 6 7 9 10 11 13 | 138 a.u.
2'F-ANA at 1 4 6 8 11 13 15 | 88.7 a.u.
2'F-ANA at 3 5 8 9 10 12 15 | 68.3 a.u.
2'F-ANA at 1 4 7 10 13 | 58.5 a.u.
